Assay results from different studies.
Protocols differ between the studies behind these lines. “And” joins repeats or separate records; there may be more than shown. ± gives the spread as reported.
Chain of UniProt Q64663 (whole entry, unmodified, looked up): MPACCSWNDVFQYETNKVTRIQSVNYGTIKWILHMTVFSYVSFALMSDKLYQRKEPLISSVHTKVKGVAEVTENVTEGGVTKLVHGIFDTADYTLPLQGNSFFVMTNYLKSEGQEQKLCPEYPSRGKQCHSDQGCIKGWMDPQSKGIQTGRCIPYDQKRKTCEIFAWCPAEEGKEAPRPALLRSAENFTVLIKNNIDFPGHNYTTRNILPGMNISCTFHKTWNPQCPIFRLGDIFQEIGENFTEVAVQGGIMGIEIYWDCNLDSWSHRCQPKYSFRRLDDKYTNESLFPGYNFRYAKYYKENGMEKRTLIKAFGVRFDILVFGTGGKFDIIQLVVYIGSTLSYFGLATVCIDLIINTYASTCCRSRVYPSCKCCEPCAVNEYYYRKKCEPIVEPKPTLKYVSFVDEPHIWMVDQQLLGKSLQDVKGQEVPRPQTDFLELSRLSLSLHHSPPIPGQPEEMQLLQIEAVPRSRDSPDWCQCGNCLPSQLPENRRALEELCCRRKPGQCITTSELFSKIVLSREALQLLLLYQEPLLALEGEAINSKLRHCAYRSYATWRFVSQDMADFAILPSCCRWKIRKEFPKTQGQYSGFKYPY
Chain of UniProt P48067 (whole entry, looked up): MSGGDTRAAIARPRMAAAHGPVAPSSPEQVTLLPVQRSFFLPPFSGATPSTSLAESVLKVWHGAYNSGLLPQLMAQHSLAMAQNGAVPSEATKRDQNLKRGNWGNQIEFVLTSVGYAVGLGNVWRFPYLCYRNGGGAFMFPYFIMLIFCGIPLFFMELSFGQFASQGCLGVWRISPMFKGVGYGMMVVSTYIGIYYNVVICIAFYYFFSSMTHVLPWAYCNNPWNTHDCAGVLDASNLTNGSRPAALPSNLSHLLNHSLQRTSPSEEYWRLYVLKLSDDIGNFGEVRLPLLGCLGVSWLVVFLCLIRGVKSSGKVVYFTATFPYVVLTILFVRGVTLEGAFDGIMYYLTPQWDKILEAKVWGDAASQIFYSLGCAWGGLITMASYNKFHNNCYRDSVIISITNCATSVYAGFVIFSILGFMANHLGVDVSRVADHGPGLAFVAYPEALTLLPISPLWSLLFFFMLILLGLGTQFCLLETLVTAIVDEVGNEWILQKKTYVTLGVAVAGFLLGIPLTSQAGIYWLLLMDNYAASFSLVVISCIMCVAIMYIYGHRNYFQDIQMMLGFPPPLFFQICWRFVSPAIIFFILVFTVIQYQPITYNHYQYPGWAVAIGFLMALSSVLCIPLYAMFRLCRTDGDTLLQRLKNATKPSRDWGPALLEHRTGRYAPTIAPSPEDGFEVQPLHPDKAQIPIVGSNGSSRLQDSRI

With `adrenomedullin` the retention time was 11.6 min (RP-HPLC; HALO RP-amide column; 25 µM, acetic acid/methanol, 25 min gradient).
The AUC(0-t) of `insulin aspart` is reported as 0.646 nM·h (Japanese type 1 diabetes patients, serum free; subcutaneous, 0.2 U/kg single, up to 12 h, least squares mean).
`11-deoxycorticosterone` — result for “rate constant k-2”: 29.3 ± 1.49 s⁻¹ (CYP11B2 (human); substrate binding, stopped-flow global kinetic fitting; purified enzyme; 3-state conformational selection model, together with: 40-fold excess adrenodoxin).
For `ACEQNPIYWARYADWLFTTPLLLLDLALLVDADEGT`, “mean fluorescence intensity” read 545 ± 85.9 a.u. (ex vivo fluorescence imaging; peptide, BALB/c mice, 4T1 tumour-bearing, kidney; intravenous, 5 nmol, 24 h post-injection; higher = more uptake).
Under “normalised SPR binding response”, `GSGAGRETEV` is recorded as 238 normalised RU (human SCRIB PDZ3-4 tandem (MBP fusion); surface plasmon resonance; peptide; concentration not given; higher = stronger binding).
With `Ubiquitin fragment (Homo sapiens)` the pKa was 10.5 (NMR, item: Lys48).
The contrast index of `ACDDQNPWRAYLDLLFPTDTLLLDLLW` is reported as 5.6 ± 0.4 (ex vivo fluorescence imaging; peptide, BALB/c mice, 4T1 tumour-bearing; intravenous, 5 nmol, 2 h post-injection, background-corrected mean fluorescence; relative to: tumour over muscle).
With `insulin aspart` the AUC(2 h-t) was 0.479 nM·h (ELISA, item: total insulin aspart; human, type 1 diabetes, serum; subcutaneous, dose not given, least squares mean).
Under “normalised SPR binding response”, `VMRLQSETSV` is recorded as 0 normalised RU (human MAGI1-2/6 PDZ construct (MBP fusion); surface plasmon resonance; peptide; concentration not given; higher = stronger binding).
`insulin icodec` — result for “participants with adverse events”: 42% (human mild renal impairment; concentration not given).
The phosphorylation level of `Peginesatide` is reported as 3.4 fold (UT7/EPO; tyrosine phosphorylation, LC-MS/MS phosphoproteomics, GluC, item: CD33 tyrosine 340; 10 nM, 15 min, together with: 10 U/mL EPO; relative to: vehicle).
For `insulin degludec`, “apparent volume of distribution” read 29.3 ± 8 L (human; subcutaneous, 0.4 IU/kg, 1 FC level, single dose, reference formulation).
The retention time of `Neuropeptide Y` is reported as 17.2 min (RP-HPLC; HALO C18 column; 25 µM, acetic acid/methanol, 25 min gradient).
`ACEEQNPWARYLEWLFPTETLLLEL`: “mean fluorescence intensity” 217 ± 21.8 a.u. (ex vivo fluorescence imaging; peptide, BALB/c mice, 4T1 tumour-bearing, liver; intravenous, 5 nmol, 24 h post-injection; higher = more uptake).
The Tmax of `human insulin` is reported as 3.78 ± 0.4 h (ELISA; pig, anaesthetized, serum; subcutaneous, 20 IU).
`colistin` gave an MIC of 1 µg/mL (Pseudomonas aeruginosa; broth microdilution; clinical isolate RKI-No_493/15).
`glucagon`: “time to fibrillation” ~8 h (aqueous solution).
Under “serum blood urea nitrogen”, `YEQDPWGVKWWY` is recorded as “no effect” (peptide, mouse, CP model, serum; 0.154 µmol/kg, 4 weeks).
For `pegcetacoplan`, “number of TEAEs” read 5 (item: metabolism and nutrition disorders; patients with PNH; dose not given, phase Ib trial).
`BzATP` gave a normalized current of 0.71 and 0.81 and 0.82 (P2X purinoceptor 7 (P2rx7, Rattus norvegicus, UniProt Q64663, I214A/R125A); ion current, agonist, two-electrode voltage clamp; Xenopus laevis oocytes; 33 µM; relative to: highest concentration response).
For `methyl-β-cyclodextrin`, “glycine uptake rate” read 47.9 a.u. and 58.3 a.u. and 42.8 a.u. and 56.7 a.u. (Sodium- and chloride-dependent glycine transporter 1 (SLC6A9, Homo sapiens, UniProt P48067); transport activity, [3H]glycine uptake; 3.5 mg/mL, 1 min, together with: glycine 300 µM; higher = more transport).

A few entries again:
Under “normalised SPR binding response”, `GSGAGRETEV` is recorded as 238 normalised RU (human SCRIB PDZ3-4 tandem (MBP fusion); surface plasmon resonance; peptide; concentration not given; higher = stronger binding).
The contrast index of `ACDDQNPWRAYLDLLFPTDTLLLDLLW` is reported as 5.6 ± 0.4 (ex vivo fluorescence imaging; peptide, BALB/c mice, 4T1 tumour-bearing; intravenous, 5 nmol, 2 h post-injection, background-corrected mean fluorescence; relative to: tumour over muscle).
